Published values gathered from unrelated publications.
Every numbered part comes from another study and shows a few of its results, in no order.

Sample 1
Target: Sal-like protein 4, full length isoform B (SALL4, Homo sapiens, UniProt Q9UJQ4-2, residues 1-616)
Technique: universal PBM
Form: double-stranded DNA, one strand shown
Matrix: in vitro
Concentration: not given
Notes: 8-mer, flanks averaged, mean of replicates
Reading: higher = stronger binding
Construct (chain): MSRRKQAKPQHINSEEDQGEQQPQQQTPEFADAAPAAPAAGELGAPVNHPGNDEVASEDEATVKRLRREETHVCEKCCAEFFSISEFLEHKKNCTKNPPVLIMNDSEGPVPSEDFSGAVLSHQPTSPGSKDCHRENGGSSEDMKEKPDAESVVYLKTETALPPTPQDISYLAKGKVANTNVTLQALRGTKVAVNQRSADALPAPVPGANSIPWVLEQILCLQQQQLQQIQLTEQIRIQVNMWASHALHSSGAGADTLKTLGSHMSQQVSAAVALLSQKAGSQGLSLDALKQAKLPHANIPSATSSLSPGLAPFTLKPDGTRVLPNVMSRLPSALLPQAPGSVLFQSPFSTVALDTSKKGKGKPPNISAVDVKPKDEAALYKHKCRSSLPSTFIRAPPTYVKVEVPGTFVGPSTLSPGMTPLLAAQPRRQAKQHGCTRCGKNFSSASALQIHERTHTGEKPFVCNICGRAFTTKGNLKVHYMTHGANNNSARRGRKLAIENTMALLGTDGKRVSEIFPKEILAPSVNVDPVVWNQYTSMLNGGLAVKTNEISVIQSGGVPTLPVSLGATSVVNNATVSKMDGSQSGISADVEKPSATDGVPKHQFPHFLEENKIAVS
Sequence | E-score
CGGATGGA | -0.00876
AAGGAACT | -0.00335
GAGAGCAC | -0.0961
CCACCCTC | -0.244

Sample 2
Target: Histone acetyltransferase KAT6A, both winged helices, GST fusion (KAT6A, Homo sapiens, UniProt Q92794, residues 1-181)
Technique: protein binding microarray
Form: double-stranded DNA, one strand shown
Matrix: in vitro
Concentration: not given
Notes: 8-mer, flanks averaged, mean of 2 arrays, mostly near background
Reference: not given
Reading: higher = stronger binding
Residues (chain): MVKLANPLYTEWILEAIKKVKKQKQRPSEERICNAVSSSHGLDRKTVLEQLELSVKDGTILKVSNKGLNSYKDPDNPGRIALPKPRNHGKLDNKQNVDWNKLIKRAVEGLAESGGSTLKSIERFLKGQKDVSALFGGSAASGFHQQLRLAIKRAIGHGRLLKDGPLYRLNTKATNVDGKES
Sequence | E-score
CTTACGCA | 0.107
CCGACGTA | 0.136
CCATAATA | -0.114

Sample 3
Target: RNA binding protein fox-1 homolog 2, RRM domain, GST-SBP tag (RBFOX2, Homo sapiens, UniProt O43251-10, residues 100-194)
Technique: RNA Bind-n-Seq
Form: RNA
Matrix: in vitro
Concentration: 365 nM
Notes: natural RNA segment, single round, ends assumed
Reference: no-protein control
Reading: higher = stronger binding
Construct (chain): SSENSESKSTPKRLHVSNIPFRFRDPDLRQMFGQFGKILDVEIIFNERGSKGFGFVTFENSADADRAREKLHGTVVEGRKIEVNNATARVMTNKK
Sequence | RBNS enrichment (R)
GGGAGUUCUACAGUCCGACGAUCUUGGCCAAAUAAAUUACUUUCCUUGAAUAUCCAGGAAUCUUUUAGUCUAAAGCAAUGAGGAGUUAUCACCUCAUCCUCAAACUCCAACAAGAUCUAUGCCUUAGUGUUGUUGGAAUUCUCGGGUGCCAA | 0.323
GGGAGUUCUACAGUCCGACGAUCUUGAAAGUAUCUGAUGGAGCUCCUGAUGACCUAAUGUAUCCUUUAGAAAUUUAAAAUAGCAUUAGAGCAAGUUGCUUGUCAUGGCUUGAAGAGCUUAACUUUGUCUUUUGUGGAAUUCUCGGGUGCCAA | 0.55
GGGAGUUCUACAGUCCGACGAUCUGCUGGCUUUUAGUGGUGUGUGUAGUUUGCUUGUAAGGGUGGGUUUGGCCCUGCAGGCCAGCUGUUUUAAUAAAGUGGGCACAUUCCCUCAUUUGGUGCCUUUUGUUAGGUGGAAUUCUCGGGUGCCAA | 1.19
GGGAGUUCUACAGUCCGACGAUCUCAUAGGCAGCAUACGCCUGCUGCCCCAUUGUGGGUGGGGGUGCCCCACUGCGUACUGUGUUUUUAAUUUCAUUUAACUUCUAGCAGACACGCUCAGUGUCUUUGAUAAAUGGAAUUCUCGGGUGCCAA | 0.458

Other studies, line by line
Molecule | target | test | test system | conditions | scale | quantity | value
PhoQ, residues 284 288 289 292 302 303 SIHMAM | PhoP, residues 12 14 15 18 19 LHHVQ (Escherichia coli, UniProt P23836) | Sort-seq, refers to: YFP reporter | E. coli | PhoQ-PhoP variant library, with: 10 µM Mg2+ | reference: high Mg2+ state, higher = stronger signaling | fold induction | 1.39

Excerpt of the above (sample 2):
Sequence | E-score
CCATAATA | -0.114
